Experimental data of several laboratories.
FLT3: Receptor-type tyrosine-protein kinase FLT3 (FLT3, Homo sapiens, UniProt P36888)
FLT3 autoinhibited: Receptor-type tyrosine-protein kinase FLT3, autoinhibited (FLT3, Homo sapiens, UniProt P36888)

Structure (SMILES) | target | assay | setting | how to read | remaining binding
CNC1C[S+]2CC[S+]3CC[S+](C1)[Ru-4]321([N]=C=S)[n]2c3ccc(OC)cc3c3c4c(c5cc(F)c[n+]1c5c32)C(=O)NC4=O (stereo not shown) | FLT3 | KinomeScan | 0.1 µM | reference: untreated | 31%
Nc1ncc2c(n1)-c1c([nH]c3ccc(C4=CCOCC4)cc13)CCC2 | FLT3 | binding, competition with immobilised ligand | 1 µM | – | 100%
C=CC(=O)N1CCc2ccc(-n3c(=O)ccc4cnc5ccc(-c6cnn(C)c6)cc5c43)cc21 | Receptor-type tyrosine-protein kinase FLT3 (FLT3, Homo sapiens, UniProt P36888, K663Q) | KINOMEscan | 1 µM | reference: DMSO control | 100%
COc1cc(Nc2nccc(-c3cnn4nc(OC)ccc34)n2)cc(C(F)(F)F)c1 | Receptor-type tyrosine-protein kinase FLT3 (FLT3, Homo sapiens, UniProt P36888, R834Q) | binding | 1 µM | – | 85%
C=CC(=O)N1CCCC(n2c(=O)c3ncccc3n(Cc3ccc(Oc4ccccc4)cc3)c2=O)C1 (stereo not shown) | FLT3 autoinhibited | cell-free assay, competition with immobilised ligand | 1 µM | – | 61%
Cc1cnc2nc1Nc1cccc(c1)COC/C=C/COCc1cc(ccc1OCCN1CCOCC1)N2 | Receptor-type tyrosine-protein kinase FLT3 (FLT3, Homo sapiens, UniProt P36888, D835Y) | binding | 0.1 µM | – | 1.8%
CCN1CCN(Cc2ccc(C(=O)Nc3ccc(C)c(NCc4cnc5[nH]ccc5c4OC)c3)cc2C(F)(F)F)CC1 | Receptor-type tyrosine-protein kinase FLT3 (FLT3, Homo sapiens, UniProt P36888, N841I) | binding, competition with immobilised ligand | 1 µM | – | 0.75%
CNC(=O)C1CCN(c2cc(C)c(F)cc2NC(=O)c2ccc(-c3cc(O)ccc3C)c(C)c2)CC1 | FLT3 | binding, competition with immobilised ligand | 1 µM | – | 96%
COc1c(Cl)cccc1Nc1c(-c2ccncc2C#C[C@@]2(C)CCCN2C(=O)/C=C/CN(C)C)[nH]c2c1C(=O)NCC2 | FLT3 autoinhibited | binding, competition with immobilised ligand | 3 µM | – | 95%
CC(C)=CC1OC(C)(C)C2C=C3C(=O)C(Cl)=CC(O)C3C3C(O)C4OC4C(=O)C132 (stereo not shown) | FLT3 autoinhibited | cell-free assay, competition with immobilised ligand | 10 µM | – | 71%
